{"data": "Results of several laboratories", "note": "A part holds a random share of what one study measured. Substitutions count along the parent as printed."}
{"data": "Block 1", "target": "Centromere-binding protein 1, full length, His-tagged (CBF1, Saccharomyces cerevisiae, UniProt P17106, residues 1-351)", "method": "competition protein-binding microarray", "molecule type": "double-stranded DNA, one strand shown", "sample": "in vitro", "concentration": "2 µM", "setting": "whole 60-bp probe, lowest competitor level", "with": "Pho4 competitor, 0.05 µM", "direction": "higher = stronger binding", "constant ends, left off below": "… GTCTTGATTCGCTTGACGCTGCTG", "chain of UniProt P17106 (whole entry, looked up)": "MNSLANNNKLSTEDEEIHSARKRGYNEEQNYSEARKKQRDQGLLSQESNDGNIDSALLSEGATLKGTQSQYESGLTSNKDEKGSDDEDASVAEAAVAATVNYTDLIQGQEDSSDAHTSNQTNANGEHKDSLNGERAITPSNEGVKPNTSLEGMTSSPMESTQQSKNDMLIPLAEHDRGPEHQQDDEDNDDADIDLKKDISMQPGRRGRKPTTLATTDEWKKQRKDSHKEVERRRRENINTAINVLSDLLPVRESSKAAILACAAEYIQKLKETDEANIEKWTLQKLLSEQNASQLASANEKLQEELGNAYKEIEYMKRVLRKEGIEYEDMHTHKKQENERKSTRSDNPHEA"}
{"Strand": "CAGTGGGAATCTGTTCATGTGGCTGTATCACAACCA", "fluorescence intensity": "86 a.u."}
{"Strand": "TGGATCTTCCACTGTCATGCTAATTGGTCTTAGGTT", "fluorescence intensity": "61.9 a.u."}
{"Strand": "CATACCCAACCTTGCTTAGTGGGTGAAGATATTTGT", "fluorescence intensity": "64.4 a.u."}
{"Strand": "AGTGCTCCGTTAAAGCCTGTGACAGTAGCAACGACA", "fluorescence intensity": "77.5 a.u."}
{"Strand": "AAATTACTAAGTTGAGATGTGGGTGACGCCGTATGA", "fluorescence intensity": "85.3 a.u."}
{"Strand": "CATACCCAACCTTGGAACGTGGGTGAAGATATTTGT", "fluorescence intensity": "90.5 a.u."}
{"Strand": "TGTGTCAATAACCCCATAATTTGAACTTCTTTCATC", "fluorescence intensity": "85.8 a.u."}
{"Strand": "CACCGCCCCCAGGTAACCGTGCGGAATGAGCTAATC", "fluorescence intensity": "73.3 a.u."}
{"data": "Block 2", "target": "FOS, bZIP domain (human)", "method": "DHFR protein complementation", "sample": "yeast", "setting": "single substitutions, most at no-binding floor", "baseline": "wild-type JUN-FOS pair", "direction": "higher = stronger binding", "starting sequence": "JUN, bZIP domain (human); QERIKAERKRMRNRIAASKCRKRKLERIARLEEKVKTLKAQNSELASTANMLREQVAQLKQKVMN; partner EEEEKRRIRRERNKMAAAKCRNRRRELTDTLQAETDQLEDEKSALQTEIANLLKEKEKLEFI"}
{"Substitution": "L31T", "binding fitness": "-0.754 natural log"}
{"Substitution": "K34T", "binding fitness": "-0.0803 natural log"}
{"Substitution": "R30H", "binding fitness": "0.0615 natural log"}
{"Substitution": "L38C", "binding fitness": "-1.28 natural log"}
{"Substitution": "T37A", "binding fitness": "0.048 natural log"}
{"Substitution": "A29V", "binding fitness": "-0.347 natural log"}
{"Substitution": "Q55E", "binding fitness": "0.00616 natural log"}
{"Substitution": "A40G", "binding fitness": "-0.261 natural log"}
{"data": "Further values, each from its own experiment", "NTRK3": "NT-3 growth factor receptor (NTRK3, Homo sapiens, UniProt Q16288)", "TMEM97": "Sigma intracellular receptor 2 (TMEM97, Homo sapiens, UniProt Q5BJF2)", "chain of UniProt Q5BJF2 (whole entry, looked up)": "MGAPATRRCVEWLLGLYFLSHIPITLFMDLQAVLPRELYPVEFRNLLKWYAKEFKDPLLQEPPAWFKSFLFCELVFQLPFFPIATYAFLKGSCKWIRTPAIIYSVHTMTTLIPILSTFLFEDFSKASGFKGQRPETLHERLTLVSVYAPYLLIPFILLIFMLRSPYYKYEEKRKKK", "chain of UniProt Q16288 (whole entry, looked up)": "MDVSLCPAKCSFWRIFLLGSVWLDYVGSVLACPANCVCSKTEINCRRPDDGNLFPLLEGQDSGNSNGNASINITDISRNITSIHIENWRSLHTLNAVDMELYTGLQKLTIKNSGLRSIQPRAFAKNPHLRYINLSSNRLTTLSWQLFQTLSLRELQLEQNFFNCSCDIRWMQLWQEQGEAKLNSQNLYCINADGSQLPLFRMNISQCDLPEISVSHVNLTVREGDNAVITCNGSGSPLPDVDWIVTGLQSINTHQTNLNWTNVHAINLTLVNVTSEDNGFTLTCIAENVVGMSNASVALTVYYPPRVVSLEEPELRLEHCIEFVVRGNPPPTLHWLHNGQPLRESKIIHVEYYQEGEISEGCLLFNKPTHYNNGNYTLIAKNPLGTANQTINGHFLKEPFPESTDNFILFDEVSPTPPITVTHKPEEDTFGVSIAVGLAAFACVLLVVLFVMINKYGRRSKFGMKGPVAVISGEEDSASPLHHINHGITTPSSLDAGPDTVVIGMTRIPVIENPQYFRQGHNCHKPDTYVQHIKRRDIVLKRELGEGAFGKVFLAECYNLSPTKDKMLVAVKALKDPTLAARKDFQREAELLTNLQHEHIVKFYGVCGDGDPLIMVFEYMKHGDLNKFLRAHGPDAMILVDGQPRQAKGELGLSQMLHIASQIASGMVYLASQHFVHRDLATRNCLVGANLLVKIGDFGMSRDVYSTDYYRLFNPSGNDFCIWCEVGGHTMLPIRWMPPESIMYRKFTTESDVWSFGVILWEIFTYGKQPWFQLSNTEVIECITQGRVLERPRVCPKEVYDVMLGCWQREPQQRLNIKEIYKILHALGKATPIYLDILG"}
{"SMILES": "NCCNc1ncc(C(N)=O)c(Nc2cccc(C(F)(F)F)c2)n1", "target": "NTRK3", "assay": "enzyme activity, inhibitor", "conditions": "0.5 µM", "how to read": "baseline: control", "measurement": "remaining activity", "result": "59.7%"}
{"SMILES": "Cc1nc(N2CC[C@@H](O)C2)ncc1-c1cc(C(F)(F)F)cc2[nH]ncc12", "target": "TMEM97", "assay": "binding, radioligand binding", "conditions": "10 µM", "measurement": "inhibition", "result": "45.5%"}
{"SMILES": "CO[C@H]1C[C@@H]2CC[C@@H](C)[C@@](O)(O2)C(=O)C(=O)N2CCCC[C@H]2C(=O)O[C@H]([C@H](C)C[C@@H]2CC[C@@H](O)[C@H](OC)C2)CC(=O)[C@H](C)/C=C(\\C)[C@@H](O)[C@@H](OC)C(=O)[C@H](C)C[C@H](C)/C=C/C=C/C=C/1C", "target": "NTRK3", "assay": "enzyme activity, inhibitor", "conditions": "0.5 µM", "how to read": "baseline: control", "measurement": "remaining activity", "result": "103%"}
{"SMILES": "CC(C)CC(=O)N1CCc2nc(-c3ccc(Br)cc3)nc(N(C)Cc3ccccc3)c2C1", "target": "TMEM97", "assay": "binding, radioligand binding", "conditions": "10 µM", "measurement": "inhibition", "result": "78.8%"}
{"note": "Repeated from above (block 1):"}
{"Strand": "CATACCCAACCTTGGAACGTGGGTGAAGATATTTGT", "fluorescence intensity": "90.5 a.u."}
{"Strand": "TGGATCTTCCACTGTCATGCTAATTGGTCTTAGGTT", "fluorescence intensity": "61.9 a.u."}
